# Results from different studies.
# Lines come from different studies, so protocols differ.
SMILES,target or system,assay,test system,setting,scale,measurement,value
N#Cc1ccc2c(c1)[C@H]1CCCN(C(=O)c3ccc4[nH]cnc4c3)[C@H]1C2,,,"human, urine","10 mg, 24 h, day 1 over day -1",baseline: placebo and baseline,total urinary corticosteroids,49.8 % change
CSc1cc(Oc2ccnc3[nH]c(=O)cnc23)ccc1NC(=O)Nc1cc(C(C)(C)C)nn1-c1ccccc1,patient-derived cell line,"RPPA, refers to: phosphorylated SAPK/JNK",human,"1 µM, 4 h",baseline: DMSO,phospho ratio,0.46
COc1cnc2cccc(N3CCc4c(cc(Cn5ccnc5C)cc4-c4cn(C)nc4C(F)(F)F)C3=O)c2c1,WM-115,"cell growth, inhibitor",,120 h,,EC50,> 30 µM
O=C(O)CNC(=O)c1ccccc1,,"binding, MIDAS equilibrium dialysis LC-MS",A2AR-BRIL thermostabilized,concentration not given,baseline: no-protein control,log2 fold change,-0.54
CCn1cc(-c2cc(Cn3ccnc3)cc3c2CCN([C@H](c2cc(OC)ccn2)C2CC2)C3=O)c(C(F)(F)F)n1,LS-123,"cell growth, inhibitor",,120 h,,EC50,24.7 µM
O=C(O)CNC(=O)Cc1ccccc1,,,"ventricular cardiomyocytes, C57BL/6 mouse","dose not given, 0.052 s",,sarcomere length,1.72 µm
N[C@@H](C[C@@H](O)C(=O)O)C(=O)O,,"binding, MIDAS equilibrium dialysis LC-MS",A2AR-BRIL thermostabilized,concentration not given,baseline: no-protein control,log2 fold change,0.0105
CCn1cc(-c2cc(Cn3ccoc3=N)cc3c2CCN([C@@H](C)c2cc(OC)ccn2)C3=O)c(C(F)(F)F)n1,HEC108,cell growth,,120 h,,EC50,0.0245 µM
O=c1[nH]c(=O)c2ncn([C@@H]3O[C@H](COP(=O)(O)O)[C@@H](O)[C@H]3O)c2[nH]1,,"binding, MIDAS equilibrium dialysis LC-MS",A2AR-BRIL thermostabilized,concentration not given,baseline: no-protein control,log2 fold change,-0.134
Cn1cc(-c2ccc(-c3cncc(Cl)c3N3CCC4(CCNC4=O)CC3)cc2)cn1,COLO 205,"gene expression, microarray, refers to: ICAM1 mRNA",,"concentration not given, 6 h",baseline: untreated cells,log2 fold change,1.4

# Excerpt of the above:
SMILES,target or system,assay,test system,setting,scale,measurement,value
O=C(O)CNC(=O)c1ccccc1,,"binding, MIDAS equilibrium dialysis LC-MS",A2AR-BRIL thermostabilized,concentration not given,baseline: no-protein control,log2 fold change,-0.54
